Experimental data of several laboratories.
± gives the spread as reported.
Organism: Acinetobacter baumannii

CC1(C)SC2C(NC(=O)C(NC(=O)C3=C(O)C(Cc4ccc(F)cc4)NC3=O)c3ccccc3)C(=O)N2C1C(=O)O (stereo not drawn) — MIC (microbial growth, broth dilution; ATCC19606): 25 µg/mL
CCOC(=O)c1c(N)csc1-c1cn(-c2ccccc2)nc1-c1ccc(C)cc1 — MIC (broth microdilution; clinical urinary isolate; compound gamma-irradiated 1 kGy): 0.24 ± 0.1 µg/mL
CCCCCCCC(=O)N[C@@H](CCN)C(=O)N[C@@H](CCN)C(=O)N[C@@H](CCN)C(=O)N[C@H](Cc1ccccc1)C(=O)N[C@@H](CC(C)C)C(=O)N[C@@H](CCN)C(=O)N[C@@H](C(=O)N[C@@H](CC(C)C)C(=O)N[C@@H](CCN)C(N)=O)C(C)C — MIC (checkerboard, measured: rifampicin; ATCC 19606; sensitization to antibiotics, with: compound at 2 µg/mL): 0.0312 to 0.0625 µg/mL
CC(C)C1NC(=O)C(C(=O)NC(C(=O)NC2C(=O)N3C2SC(C)(C)C3C(=O)O)c2ccccc2)=C1O (stereo not drawn) — MIC (microbial growth, broth dilution; ATCC19606): 100 µg/mL
CCCCCCC(=O)N[C@@H](CCN)C(=O)N[C@H](C(=O)N[C@@H](CCN)C(=O)N[C@H](Cc1ccccc1)C(=O)N[C@@H](CC(C)C)C(=O)N[C@@H](CCN)C(=O)N[C@@H](C(=O)N[C@@H](CC(C)C)C(=O)N[C@@H](CO)C(N)=O)C(C)C)C(C)C — MIC (checkerboard, measured: rifampicin; ATCC 19606; sensitization to antibiotics, with: compound at 4 µg/mL): 0.0313 to 0.0625 µg/mL
N#CC(=Cc1cn(-c2ccccc2)nc1-c1ccccc1)C1=NC(=O)CS1 — MIC (microbial growth, broth dilution): 0.44 µg/mL
CC(C)(C)Oc1ccc(CC2NC(=O)C(C(=O)NC(C(=O)NC3C(=O)N4C3SC(C)(C)C4C(=O)O)c3ccccc3)=C2O)cc1 (stereo not drawn) — MIC (microbial growth, broth dilution; ATCC19606): ≥ 200 µg/mL
CCCCCC(=O)N[C@@H](CCN)C(=O)N[C@H](C(=O)N[C@@H](CCN)C(=O)N[C@H](Cc1ccccc1)C(=O)N[C@@H](CC(C)C)C(=O)N[C@@H](CCN)C(=O)N[C@@H](C(=O)N[C@@H](CC(C)C)C(=O)N[C@@H](CO)C(N)=O)C(C)C)[C@@H](C)CC — MIC (checkerboard, measured: rifampicin; ATCC 19606; sensitization to antibiotics, with: compound at 4 µg/mL): 0.00195 to 0.0039 µg/mL
CC1(C)S[C@@H]2[C@H](NC(=O)[C@H](N)c3ccccc3)C(=O)N2[C@H]1C(=O)O — MIC (microbial growth, broth dilution; ATCC19606): 100 µg/mL
CCCCCCCC(=O)N[C@@H](CCCN)C(=O)N[C@H](C(=O)N[C@@H](CCCN)C(=O)N[C@H](Cc1ccccc1)C(=O)N[C@@H](CC(C)C)C(=O)N[C@@H](CCCN)C(=O)N[C@@H](C(=O)N[C@@H](CC(C)C)C(=O)N[C@@H](CO)C(N)=O)C(C)C)[C@@H](C)CC — MIC (checkerboard, measured: rifampicin; ATCC 19606; sensitization to antibiotics, with: compound at 4 µg/mL): 0.0156 to 0.0313 µg/mL
CC1(C)SC2C(NC(=O)C(NC(=O)C3=C(O)C4CCCN4C3=O)c3ccccc3)C(=O)N2C1C(=O)O (stereo not drawn) — MIC (microbial growth, broth dilution; ATCC19606): ≥ 200 µg/mL
CCCCCCCCCC(=O)N[C@@H](CCN)C(=O)N[C@H](C(=O)N[C@H](C(=O)N[C@H](CC(C)C)C(=O)N[C@@H](CC(C)C)C(=O)N[C@@H](CCN)C(=O)N[C@@H](C(=O)N[C@@H](CC(C)C)C(=O)N[C@@H](CO)C(N)=O)C(C)C)[C@@H](C)O)[C@@H](C)CC — MIC (checkerboard, measured: rifampicin; ATCC 19606; sensitization to antibiotics, with: compound at 2 µg/mL): > 0.125 µg/mL
CC1(C)S[C@@H]2[C@H](NC(=O)[C@H](N)c3ccccc3)C(=O)N2[C@H]1C(=O)O — MIC: > 367 µM
O=C(O)c1cn(C2CC2)c2cc(N3CCNCC3)c(F)cc2c1=O — MIC (microbial growth, broth dilution): 0.47 µg/mL
CC(C)(S)C(NC[C@H](NC[C@H](N)C(=O)O)C(=O)O)C(=O)O (stereo in doubt) — MIC (broth microdilution; ATCC 17978 expressing NDM-1): 16 µg/mL

Some of these lines once more:
CCCCCC(=O)N[C@@H](CCN)C(=O)N[C@H](C(=O)N[C@@H](CCN)C(=O)N[C@H](Cc1ccccc1)C(=O)N[C@@H](CC(C)C)C(=O)N[C@@H](CCN)C(=O)N[C@@H](C(=O)N[C@@H](CC(C)C)C(=O)N[C@@H](CO)C(N)=O)C(C)C)[C@@H](C)CC — MIC (checkerboard, measured: rifampicin; ATCC 19606; sensitization to antibiotics, with: compound at 4 µg/mL): 0.00195 to 0.0039 µg/mL
